Measured values pooled from the literature.
Lines come from different studies, so protocols differ. ± marks the error that the study gave.
Target: Tyrosine-protein kinase FRK (FRK, Homo sapiens, UniProt P42685)
Sequence of UniProt P42685 (whole entry, looked up): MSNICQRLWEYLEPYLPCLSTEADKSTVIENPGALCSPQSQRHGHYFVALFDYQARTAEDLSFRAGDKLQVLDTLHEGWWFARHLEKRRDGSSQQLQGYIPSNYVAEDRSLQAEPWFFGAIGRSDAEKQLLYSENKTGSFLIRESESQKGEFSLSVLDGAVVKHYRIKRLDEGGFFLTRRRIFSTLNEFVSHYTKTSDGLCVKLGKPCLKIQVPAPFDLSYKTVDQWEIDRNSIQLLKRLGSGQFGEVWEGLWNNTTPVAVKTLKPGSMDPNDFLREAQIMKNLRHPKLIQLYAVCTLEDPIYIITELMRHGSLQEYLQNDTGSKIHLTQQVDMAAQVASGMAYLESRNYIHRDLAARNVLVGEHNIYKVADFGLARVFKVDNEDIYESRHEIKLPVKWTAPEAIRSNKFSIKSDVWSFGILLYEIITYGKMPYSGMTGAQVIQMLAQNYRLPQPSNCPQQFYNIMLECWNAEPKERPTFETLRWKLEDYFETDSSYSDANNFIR

Compound	test	setting	how to read	measurement	result
C=CC(=O)N1CCC[C@@H](n2nc(-c3ccc(Oc4ccccc4)cc3)c3c(N)ncnc32)C1	kinase activity, inhibitor, HotSpot radiometric	100 nM, with: ATP 10 µM	–	remaining activity	73.1 ± 1.1%
C=CC(=O)N1CCC[C@@H](n2nc(-c3ccc(Oc4ccccc4)cc3)c3c(N)ncnc32)C1	–	10 µM	–	remaining activity	93.7%
COc1ccc(F)cc1C(=O)NCc1ccc(-c2nn([C@@H](C)C(F)(F)F)c(N)c2C(N)=O)cc1	kinase activity, inhibitor, HotSpot radiometric	1000 nM, with: ATP at Km	–	remaining activity	98.4 ± 2.8%
[2H]c1cc(C)c(NC(=O)c2cnc(Nc3cc(N4CCCCC4)nc(C)n3)s2)c(Cl)c1	–	0.0001 µM	–	inhibition	> 50%
C=CC(=O)N1CCC([C@@H]2CCNc3c(C(N)=O)c(-c4ccc(Oc5ccccc5)cc4)nn32)CC1	kinase activity, inhibitor, HotSpot radiometric	100 nM, with: ATP 10 µM	–	remaining activity	91 ± 1.2%
[2H]c1cc(C)c(NC(=O)c2cnc(Nc3cc(N4CCC(O)CC4)nc(C)n3)s2)c(Cl)c1	–	0.001 µM	–	inhibition	> 50%
COc1cc(F)ccc1-c1ncnc(Nc2cccc(C[S@](C)(=N)=O)c2)n1	kinase activity	10 µM, with: 10 µM ATP	–	remaining activity	55%
C=CC(=O)N1CCC(COCC(=O)N2CCN(c3nc(-c4cnc(N)nc4C(F)F)nc(N4CCOC[C@@H]4C)n3)CC2)CC1	KINOMEscan	1 µM	–	remaining binding	96%
Cc1cc(Nc2cc(N3CCN(C)CC3)nc(Sc3ccc(NC(=O)C4CC4)cc3)n2)[nH]n1	kinase activity, KinaseProfiler	0.03 µM, species human	relative to: control	remaining activity	99%
